Results gathered from unrelated publications.
Each line is one published result; not all experiments were run side by side. Values joined by “and” are separate records of one study, mostly repeats; a detail may differ. ± gives the spread as reported.

| SMILES | target or system | assay | system | setting | how to read | measurement | result |
| --- | --- | --- | --- | --- | --- | --- | --- |
| CC[C@H](C)[C@@H]1NC(=O)[C@@H]2CCCN2C(=O)[C@H](CC(C)C)NC(=O)[C@H](CC(C)C)NC(=O)CNC(=O)[C@@H](NC(=O)[C@@H](NC(=O)[C@H](CC(=O)O)NC(=O)CNC(=O)[C@@H](NC(=O)[C@H](C)NC(=O)CNC(=O)[C@H](CCCCN)NC(=O)[C@H](CC(C)C)NC(=O)[C@H](CC(C)C)NC(=O)[C@H](CCCCN)NC(=O)CNC(=O)[C@@H](NC(=O)[C@@H](N)CC(C)C)C(C)C)C(C)C)C(C)C)CSSC[C@@H](C(=O)O)NC1=O | – | RNA-seq, refers to: Maff mRNA | mouse traumatic brain injury, frontal cortex and hippocampus | dose not given | baseline: TBI plus compound vs TBI | log2 fold change | -1.98 |
| N.N.O=C([O-])C1(C(=O)[O-])CCC1.[Pt+2] | – | – | mice, OVCAR-4 xenograft | dose not given, up to 110 days | – | survival time | 74.7 days |
| COc1cc2nccc(Oc3ccc(NC(=O)NC4CC4)c(Cl)c3)c2cc1C(N)=O | human coronavirus OC43 | virus-induced cell killing | MRC-5 | maximum over 10 doses | – | maximum inhibition | 0% |
| O=C(O)/C=C/C(=O)O.Oc1cccc2[nH]cc(CCNCc3ccccc3)c12 | – | – | C57BL/6J mice | subcutaneous, 0.3 mg/kg | baseline: pre-session baseline | body temperature change | 0 ± 0.1 °C |
| CCCCC1(CCCC)CN(c2ccccc2)c2cc(SC)c(OCC(=O)N[C@@H](C(=O)NCC(=O)O)c3ccccc3)cc2S(=O)(=O)C1 | – | refers to: LDL cholesterol | human, serum | 20 mg once daily, day 11 | – | serum LDL-C | 69.3 mg/dL |
| C=CCNc1c(O)cc2c(O)c1C[C@@H](C)C[C@H](OC)[C@H](O)[C@@H](C)/C=C(\C)[C@H](OC(N)=O)[C@@H](OC)/C=C\C=C(/C)C(=O)N2 | – | 18F-FDG PET | human GIST | dose not given | – | patients with reduced FDG avidity | 66% |
| CCCCCCCCCCCCCCCC(=O)N[C@H]1C[C@@H](O)[C@@H](O)NC(=O)[C@@H]2[C@@H](O)[C@@H](C)CN2C(=O)[C@H]([C@@H](C)O)NC(=O)[C@H]([C@H](O)[C@@H](O)c2ccc(O)cc2)NC(=O)[C@@H]2C[C@@H](O)CN2C(=O)[C@H]([C@@H](C)O)NC1=O | – | calcein leakage | DOPC/DOPG/CHOL liposomes | concentration not given, added: 20 wt% PEG-8000 | – | fusion time constant | 68 ± 14 min |
| C[C@]12CC[C@H](O)C[C@H]1CC[C@@H]1[C@@H]2CC[C@]2(C)[C@@H](c3ccc(=O)oc3)CC[C@]12O | – | – | female nude mouse LCC2 xenograft | 0.5 mg/kg, day 5, tamoxifen-resistant | – | tumour volume | 36.3 mm3 and 27.9 mm3 and 38.6 mm3 and 35.3 mm3 and 47.4 mm3 and 42.5 mm3 and 39.8 mm3 |
| C[C@H]1O[C@@H](O[C@H]2CC[C@@]3(C)[C@@H](CC[C@]4(C)[C@@H]3C=C[C@]35OC[C@@]6(CCC(C)(C)C[C@H]63)[C@@H](O)C[C@]54C)[C@]2(C)CO)[C@H](O)[C@@H](O[C@@H]2O[C@H](CO)[C@@H](O)[C@H](O)[C@H]2O)[C@H]1O | – | refers to: PPAR-α | ethanol-fed mice, hepatic SIRT1 knockdown (AAV8-TBG-SIRT1), liver | dose not given, high dose, unit not given | baseline: AAV8-TBG-Null ethanol group | mRNA level | 0.66 and 1.2 and 0.71 and 0.94 |
| C[C@]1(CO)Cc2ncn(-c3ccc(C#N)c(Cl)c3)c2C(=O)O1 | – | aldosterone synthesis, inhibitor, refers to: potassium | healthy Japanese adults, urine | 3 mg, 0-24 h at steady state, multiple rising dose | – | urinary excretion | 37.1 mmol |
| Cc1cn(-c2cc(NC(=O)c3ccc(C)c(Nc4nccc(-c5cccnc5)n4)c3)cc(C(F)(F)F)c2)cn1 | – | – | Alzheimer's disease patients | 300 mg, 12 months, group mean | direction not given | CDR-SOB score | 7.9 ± 3 |
| C/C=C1\NC(=O)C(C(C)O)NC(=O)C(CCCN)NC(=O)C(CCO)NC(=O)C(CCN)NC(=O)C(CCN)NC(=O)C(NC(=O)CC(O)CCCCCCCCCCC)COC(=O)C(C(O)CCl)NC(=O)C(C(O)C(=O)O)NC1=O (stereo not drawn) | – | calcein leakage | DOPC/CHOL liposomes | concentration not given, added: 20 wt% PEG-8000 | – | fusion time constant | 5 ± 1 min |
| Cc1cn([C@H]2O[C@@H](CO[P@@](=O)(N[C@@H](C)C(=O)OC(C)C)Oc3ccccc3)[C@H](O)[C@H]2F)c(=O)[nH]c1=O | – | – | adults with chronic hepatitis B | 10 mg, day 28 | baseline: baseline | change in HBsAg | -0.11 log10 IU/mL |
| Cc1nc(Nc2ccc(CC(=O)O)cc2)nc(Nc2ccc(F)c(C(F)(F)F)c2)c1C | – | – | C57BL/6J mouse, high-fat diet MASH model, liver | intraperitoneal, 0.3 mg/kg daily, 60% fat diet for 12 weeks, dosed final four weeks | baseline: untreated | PPAR-gamma expression | no effect |
| CS(=O)(=O)c1ccc(-c2nnc(/C=C/c3nnc(-c4ccc(C#N)cc4)o3)n2-c2ccccc2Cl)nc1 | – | RNA-seq GSEA, refers to: HALLMARK_NOTCH_SIGNALING | organoids, small intestinal, Apc Q1405X, mouse | dose not given, knockout organoids | baseline: DMSO, direction not given | normalized enrichment score | -1.36 |
| CN1CCN(S(=O)(=O)c2cc([N+](=O)[O-])ccc2N(CCOS(C)(=O)=O)CCOS(C)(=O)=O)CC1 | – | – | NSG mice, sample CE PDX | intraperitoneal, 25 mg/kg weekly x3 | – | event-free survival | > 84 days |
| Clc1cc2c(cc1Cl)Oc1cc(Cl)c(Cl)cc1O2 | – | RNA-Seq, refers to: Cyp4a2 | female Sprague-Dawley rat, liver | dose not given | baseline: vehicle | mRNA level | 2 fold |
| O=S(=O)(O)C(F)(F)C(F)(F)C(F)(F)C(F)(F)C(F)(F)C(F)(F)C(F)(F)C(F)(F)F | – | RNA-seq pathway analysis, refers to: cholesterol biosynthesis genes | liver spheroids | concentration not given, 24 h and 10 d | – | gene expression | decreased |
| CC(=O)c1c(C)c2cnc(Nc3ccc(C4CCN(CCS(C)(=O)=O)CC4)cn3)nc2n(C2CCCC2)c1=O | – | tumour growth | rat, MCF7 breast cancer model | oral, 80 mg/kg twice daily, 28 days | – | T/C | -56% |
| COc1ccc(CCC2CCCC(CCc3ccc(OC)cc3)N2C[C@@H](O)CO)cc1.Cl (stereo in doubt) | – | – | rat striatal slices | 10 µM, 30 min, no methamphetamine | – | DOPAC overflow | 159 ± 29.4 pg/30 mL/mg |
| CC(C)c1nc(N(C)S(C)(=O)=O)nc(-c2ccc(F)cc2)c1/C=C/[C@@H](O)C[C@@H](O)CC(=O)O | human coronavirus OC43 | virus-induced cell killing | MRC-5 | screen | – | maximum inhibition | 28.1% |
